Assay results pooled from the literature.
Each numbered part is a random draw from the data of one study; scales do not carry over between parts. “And” joins repeats or separate records; there may be more than shown.

Set 1
Compound: C[C@@H]1CN(c2ccc(-c3cc(C(=O)NCCOCCOCCOCCOCCOCCOCCNC(=O)/C=C/c4[nH]cc(C(=O)N[C@@H](CC(N)=O)c5ccc(F)c(Cl)c5)c4-c4ccc(Cl)cc4F)ccc3F)cc2NC(=O)c2ccc(F)cc2C(F)(F)F)C[C@H](C)N1C
Mode: degrader
Time: 24 h
WDR5: WD repeat-containing protein 5 (WDR5, Homo sapiens, UniProt P61964)
The “remaining protein level” was 103% and 97.9% and 90.6% (WDR5; Jess capillary immunoassay, measured: WDR5 over vinculin; 25.7 nM; baseline: DMSO).
It gave 74.9% and 71.9% and 70.1% for “remaining protein level” (WDR5/DCAF1 (Homo sapiens, UniProt P61964+Q9Y4B6); HiBiT luminescence; 10000 nM).
The “remaining protein level” was 111% and 93.8% and 106% (WDR5; Jess capillary immunoassay, measured: WDR5 over vinculin; 2 nM; baseline: DMSO).
The “remaining protein level” was 80.7% and 72.4% and 67.8% (WDR5; Jess capillary immunoassay, measured: WDR5 over vinculin; 4270 nM; baseline: DMSO).
For WDR5; Jess capillary immunoassay, measured: WDR5 over vinculin; 777 nM; baseline: DMSO: “remaining protein level” read 67.2% and 76.7% and 65.8%.
The “remaining protein level” was 60.1% and 73.7% and 66.1% (WDR5; Jess capillary immunoassay, measured: WDR5 over vinculin; 1821 nM; baseline: DMSO).

Set 2
Compound: CCN(c1nc(N)c(C(=O)N=C(N)N)nc1Cl)C(C)C
Effect on: β-arrestin recruitment
Mode: agonist
Technique: PRESTO-Tango
Tested at: 10 µM
Baseline: untreated
It gave 1.02 for “fold over basal” (CXCR1 (Homo sapiens, UniProt P25024)).
It gave 1.03 for “fold over basal” (Probable G-protein coupled receptor 173 (GPR173, Homo sapiens, UniProt Q9NS66)).
For DRD2 (Homo sapiens, UniProt P14416): “fold over basal” read 0.64.
For HTR2A (Homo sapiens, UniProt P28223): “fold over basal” read 0.34.
It gave 1.18 for “fold over basal” (NPFFR1 (Homo sapiens, UniProt Q9GZQ6)).
For Adhesion G-protein coupled receptor F3 (ADGRF3, Homo sapiens, UniProt Q8IZF5): “fold over basal” read 1.46.
HTR5A (Homo sapiens, UniProt P47898) — “fold over basal”: 0.91.
The “fold over basal” was 0.95 (DRD1 (Homo sapiens, UniProt P21728)).
The “fold over basal” was 1.3 fold (TACR1 (Homo sapiens, UniProt P25103)).
The “fold over basal” was 1.03 (NTSR1 (Homo sapiens, UniProt P30989)).
It gave 0.8 for “fold over basal” (Relaxin receptor 2 (RXFP2, Homo sapiens, UniProt Q8WXD0)).

Set 3
Target: NT-3 growth factor receptor (NTRK3, Homo sapiens, UniProt Q16288)
Effect on: enzyme activity
Mode: inhibitor
Tested at: 0.5 µM
Baseline: control
With `O=C1Nc2ccccc2/C1=C\c1c(Cl)[nH]c2ccccc12` the remaining activity was 92.9%.
With `N#C/C(=C(/N)SC1C=CC=CC1)c1cccc(C(O)c2ccncc2)c1` (stereo not shown) the remaining activity was 103%.
With `O=C1NC(=O)/C(=C/c2ccc3c(c2)OC(F)(F)O3)S1` the remaining activity was 98%.
With `C[C@@H](N)[C@H]1CC[C@H](C(=O)Nc2ccncc2)CC1` the remaining activity was 93.6%.
`O=C(O)/C=C/c1cc(Br)c(Br)c(Br)c1Br` gave a remaining activity of 90.6%.
The remaining activity of `O=C(c1ccccc1)c1ccc(N2CCOCC2)cc1O` is reported as 93.7%.
The remaining activity of `COc1ccc2c(c1)c(C1=C(c3c[nH]c4ccccc34)C(=O)NC1=O)cn2CCCN(C)C` is reported as 54.9%.
`O=C(c1cc2cc(O)ccc2[nH]1)c1cc2cc(O)ccc2[nH]1` has a remaining activity of 13.4%.
For `CC(C)N(CCC(=O)c1ccc2ccccc2c1)Cc1ccccc1`, the remaining activity was 103%.
For `O=C1NC(=O)c2c1c1c3ccccc3[nH]c1c1[nH]c3cc(Br)ccc3c21`, the remaining activity was 28.8%.
`Oc1cccc(-c2nc(N3CCOCC3)c3oc4ncccc4c3n2)c1` gave a remaining activity of 91.1%.
For `CC(C)n1cnc2c(Nc3cccc(Cl)c3)nc(NCCO)nc21`, the remaining activity was 30.7%.
For `CCCCc1c(-c2ccc(OC)cc2)[nH]c2nccnc12`, the remaining activity was 84.4%.
With `CCCNC(=O)Nc1ccc(Oc2ncnc3cc(OC)c(OC)cc23)cc1Cl` the remaining activity was 89%.
The remaining activity of `CN(C)S(=O)(=O)c1ccc2c(c1)/C(=C/c1cc3c([nH]1)CCCC3)C(=O)N2` is reported as 2.88%.
For `O=C1Nc2ccc(Br)cc2/C1=C/c1cc2c([nH]1)CCCC2`, the remaining activity was 11.9%.
The remaining activity of `NC(=O)c1ccc(-c2nc(-c3ccc4c(c3)OCCO4)c(-c3ccccn3)[nH]2)cc1` is reported as 95%.
`O=C1Cc2c([nH]c3ccc(Br)cc23)-c2ccccc2N1` gave a remaining activity of 70.7%.
`O=C1NC(=O)c2c1c1c3ccccc3[nH]c1n1cncc21` gave a remaining activity of 26.1%.
For `N#CC(c1ccnc(NCCc2cccnc2)n1)c1nc2ccccc2s1` (stereo not shown), the remaining activity was 80.2%.
The remaining activity of `NC(=O)c1cccc(-c2cc(Nc3ccc(OC(F)(F)F)cc3)ncn2)c1` is reported as 92.7%.
`COc1cccc(-c2cc(=O)c3ccccc3o2)c1N` has a remaining activity of 99.3%.
`O=c1cc(N2CCOCC2)oc2c(-c3ccccc3)cccc12` gave a remaining activity of 95.9%.
The remaining activity of `O=C1c2ccccc2-c2nc3nnnn3nc21` is reported as 87.2%.

Set 4
Structure (SMILES): O=C(O)[C@H]1[C@H](Cn2nnc3ccccc3c2=O)CC[C@@H]1C(=O)c1ccc(OCCC2CCOCC2)cc1
Tested at: 1 µM
For LIM domain kinase 1 (LIMK1, Homo sapiens, UniProt P53667); cell-free assay, competition with immobilised ligand: remaining binding read 100%.
The remaining binding was 82% (CSNK1A1 (Homo sapiens, UniProt P48729); cell-free assay, competition with immobilised ligand).
TIE1 (Homo sapiens, UniProt P35590); cell-free assay, competition with immobilised ligand — remaining binding: 75%.
It gave 93% for remaining binding (CDC42BPG (Homo sapiens, UniProt Q6DT37); competition binding).
CHEK1 (Homo sapiens, UniProt O14757); cell-free assay, competition with immobilised ligand — remaining binding: 100%.
It gave 89% for remaining binding (MAPKAPK2 (Homo sapiens, UniProt P49137); cell-free assay, competition with immobilised ligand).
FGFR3 (Homo sapiens, UniProt P22607, G697C); cell-free assay, competition with immobilised ligand — remaining binding: 100%.
The remaining binding was 92% (MAP3K11 (Homo sapiens, UniProt Q16584); cell-free assay, competition with immobilised ligand).
PHKG2 (Homo sapiens, UniProt P15735); cell-free assay, competition with immobilised ligand — remaining binding: 100%.
It gave 78% for remaining binding (Ribosomal protein S6 kinase alpha-2, C-terminal kinase domain (RPS6KA2, Homo sapiens, UniProt Q15349); cell-free assay, competition with immobilised ligand).
NEK4 (Homo sapiens, UniProt P51957); cell-free assay, competition with immobilised ligand — remaining binding: 84%.

Some of these lines once more (set 3):
With `CCCNC(=O)Nc1ccc(Oc2ncnc3cc(OC)c(OC)cc23)cc1Cl` the remaining activity was 89%.
With `N#C/C(=C(/N)SC1C=CC=CC1)c1cccc(C(O)c2ccncc2)c1` (stereo not shown) the remaining activity was 103%.
For `N#CC(c1ccnc(NCCc2cccnc2)n1)c1nc2ccccc2s1` (stereo not shown), the remaining activity was 80.2%.
